Measurements gathered from unrelated publications.
Each line is one published result; not all experiments were run side by side. ± gives the spread as reported.

With `CN1Cc2cc(Cl)ccc2-n2c(nnc2C2CCN(c3cccc([18F])n3)CC2)C1` the tissue uptake was 11.6 ± 2.5 %ID/g (C57BL/6 mouse male, kidney; intravenous, 3.7 MBq, 30 min).
With `CC[C@H](C)[C@H](NC(=O)[C@H](CCCNC(=N)N)NC(=O)[C@H](CCCCN)NC(=O)[C@H](Cc1ccc(O)cc1)NC(=O)[C@H](CC(=O)O)NC(=O)[C@H](C)NC(=O)CNC(=O)CCOCCOCCOCCNC(=O)CN1CCN(CC(=O)O)CCN(CC(=O)O)CCN(CC(=O)O)CC1)C(=O)N[C@H](C(=O)N[C@H](C(=O)N[C@@H](CCCCN)C(=O)N[C@H](C(=O)N[C@@H](CC(N)=O)C(N)=O)C(C)C)C(C)C)[C@@H](C)O` [copper-64 labelled] the tissue uptake was 0.578 ± 0.104 %ID/g (ex vivo gamma counting; male C57BL/6J mouse, B16-F10 tumour, intestinal lymph node; intravenous, 1.85 MBq, 100 min).
With `CCCC[C@H]1C(=O)N(C)[C@@H](CCCC)C(=O)N[C@@H](CCCNC(=O)CN2CCN(CC(=O)O)CCN(CC(=O)O)CCN(CC(=O)O)CC2)C(=O)N[C@H](C(=O)NCC(N)=O)CSCC(=O)N[C@@H](Cc2ccc(O)cc2)C(=O)N(C)[C@@H](C)C(=O)N[C@@H](CC(N)=O)C(=O)N2CCC[C@H]2C(=O)N[C@@H](Cc2c[nH]cn2)C(=O)N[C@@H](CC(C)C)C(=O)N(C)CC(=O)N[C@@H](Cc2c[nH]c3ccccc23)C(=O)N[C@@H](CO)C(=O)N[C@@H](Cc2c[nH]c3ccccc23)C(=O)N1C` [gallium-68 labelled] the tissue uptake was 1.65 ± 0.5 %ID/g (NOD/SCID mice, CHO-hPD-L1 xenograft, bone; 60 min, PBS pretreatment).
`CC(C)C[C@@H](NC(=O)[C@@H](CCCNC(=N)N)NC(=O)[C@@H](Cc1c[nH]cn1)NC(=O)[C@@H](Cc1c[nH]c2ccccc12)NC(=O)[C@@H](Cc1c[nH]cn1)NC(=O)[C@@H](Cc1ccccc1)NC(=O)[C@H](NC(=O)[C@@H](Cc1ccc(O)cc1)NC(=O)CNC(=O)CNC(=O)CCOCCOCCOCCNC(=O)CN1CCN(CC(=O)O)CCN(CC(=O)O)CC1)[C@H](C)O)C(=O)N[C@H](CC(N)=O)C(=O)N1CCC[C@@H]1C(=O)O` [gallium-68 labelled] gave a tissue uptake of 0.94 ± 0.13 %ID/g (gamma counting; C57BL/6 mice, male, lung; intravenous, 1.85 MBq, 60 min).
For `CC[C@H](C)[C@H](NC(=O)[C@H](CCCCN)NC(=O)CNC(=O)[C@H](CC(C)C)NC(=O)[C@H](Cc1ccccc1)NC(=O)[C@H](CCCCN)NC(=O)[C@H](CO)NC(=O)[C@H](Cc1ccccc1)NC(=O)[C@H](Cc1c[nH]c2ccccc12)NC(=O)[C@H](CCC(N)=O)NC(=O)[C@@H](NC(=O)[C@H](Cc1ccccc1)NC(=O)CCCCCNC(=O)CN1CCN(CC(=O)O)CCN(CC(=O)O)CCN(CC(=O)O)CC1)C(C)C)C(=O)N[C@@H](CCC(=O)O)C(=O)N1CCC[C@H]1C(=O)N[C@@H](CC(=O)O)C(=O)N[C@H](C(=O)N[C@@H](CO)C(=O)N[C@@H](CCC(N)=O)C(=O)N[C@H](C(=O)N[C@@H](CCC(N)=O)C(=O)N[C@@H](CC(=O)O)C(=O)N1CCC[C@H]1C(=O)N[C@@H](CC(N)=O)C(=O)N[C@@H](CC(=O)O)C(=O)N[C@@H](CCC(N)=O)C(=O)N[C@@H](Cc1ccc(O)cc1)C(=O)N[C@@H](CCC(=O)O)C(=O)N1CCC[C@H]1C(=O)N[C@@H](Cc1ccccc1)C(=O)O)C(C)C)C(C)C` [copper-64 labelled], the tissue uptake was 0.68 ± 0.1 %ID/g (GZMB-/- mice, CT26 tumour-bearing, spleen; 2 h, vehicle-treated).
For `CC[C@H](C)[C@H](NC(=O)[C@H](CCCNC(=N)N)NC(=O)[C@H](CCCCN)NC(=O)[C@H](Cc1ccc(O)cc1)NC(=O)[C@H](CC(=O)O)NC(=O)[C@H](C)NC(=O)CNC(=O)CCOCCOCCOCCNC(=O)CN1CCN(CC(=O)O)CCN(CC(=O)O)CCN(CC(=O)O)CC1)C(=O)N[C@H](C(=O)N[C@@H](CC(C)C)C(=O)N[C@@H](CCCCN)C(=O)N[C@H](C(=O)N[C@@H](CC(N)=O)C(N)=O)C(C)C)[C@@H](C)O` [copper-64 labelled], the tissue uptake was 0.558 ± 0.249 %ID/g (ex vivo gamma counting; male C57BL/6J mouse, B16-F10 tumour, intestinal lymph node; intravenous, 1.85 MBq, 20 min).
For `CSCC[C@H](NC(=O)CNC(=O)[C@H](CCCCN)NC(=O)[C@H](CC(C)C)NC(=O)[C@@H]1CCCN1C(=O)[C@H](CO)NC(=O)[C@H](Cc1c[nH]cn1)NC(=O)[C@H](Cc1c[nH]c2ccccc12)NC(=O)[C@H](CCCNC(=N)N)NC(=O)[C@H](CC(C)C)NC(=O)[C@H](CCCNC(=N)N)NC(=O)[C@H](Cc1c[nH]c2ccccc12)NC(=O)[C@H](CS)NC(=O)CCCCCNC(=O)CN1CCN(CC(=O)O)CCN(CC(=O)O)CCN(CC(=O)O)CC1)C(=O)O` [copper-64 labelled], the tissue uptake was 2.46 %ID/g (ex vivo biodistribution; C57BL/6J mice bearing B16-F10 tumours, thymus; intravenous, 1.85 MBq, 0.5 h).
With `C[C@H](O)[C@@H](NC(=O)[C@H]1CCCN1C(=O)[C@@H](CCCCN)NC(=O)[C@@H](CO)NC(=O)[C@@H](Cc1ccc(O)cc1)NC(=O)[C@@H](CC(N)=O)NC(=O)CCOCCOCCOCCNC(=O)CN1CCN(CC(=O)O)CCN(CC(=O)O)CCN(CC(=O)O)CC1)C(=O)N[C@H](CC(=O)O)C(=O)N[C@H](CCCNC(=N)N)C(=O)N[C@H](CCC(N)=O)C(=O)N[C@H](Cc1ccc(O)cc1)C(=O)N[C@H](Cc1c[nH]cn1)C(=O)N[C@H](Cc1ccccc1)C(N)=O` [copper-64 labelled] the tissue uptake was 0.32 ± 0.02 %ID/g (C57BL/6J mice, muscle; intravenous, 1.85 MBq, 0.6667 h, radiolabelled).
